Experimental data pooled from the literature.
A part holds a random share of what one study measured.
Chain of UniProt Q16566 (whole entry, looked up): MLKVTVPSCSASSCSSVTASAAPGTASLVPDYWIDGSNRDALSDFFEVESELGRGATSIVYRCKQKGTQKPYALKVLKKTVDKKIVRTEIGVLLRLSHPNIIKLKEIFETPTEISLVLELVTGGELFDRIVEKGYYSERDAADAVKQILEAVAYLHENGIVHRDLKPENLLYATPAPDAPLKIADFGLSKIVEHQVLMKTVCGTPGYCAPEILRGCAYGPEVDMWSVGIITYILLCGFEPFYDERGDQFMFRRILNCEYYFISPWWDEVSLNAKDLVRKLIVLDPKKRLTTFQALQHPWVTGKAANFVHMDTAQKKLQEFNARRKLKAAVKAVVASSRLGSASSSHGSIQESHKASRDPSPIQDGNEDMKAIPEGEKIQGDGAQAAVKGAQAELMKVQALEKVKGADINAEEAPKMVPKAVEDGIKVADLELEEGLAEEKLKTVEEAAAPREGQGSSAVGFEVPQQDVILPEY
Chain of UniProt P35968 (whole entry, looked up): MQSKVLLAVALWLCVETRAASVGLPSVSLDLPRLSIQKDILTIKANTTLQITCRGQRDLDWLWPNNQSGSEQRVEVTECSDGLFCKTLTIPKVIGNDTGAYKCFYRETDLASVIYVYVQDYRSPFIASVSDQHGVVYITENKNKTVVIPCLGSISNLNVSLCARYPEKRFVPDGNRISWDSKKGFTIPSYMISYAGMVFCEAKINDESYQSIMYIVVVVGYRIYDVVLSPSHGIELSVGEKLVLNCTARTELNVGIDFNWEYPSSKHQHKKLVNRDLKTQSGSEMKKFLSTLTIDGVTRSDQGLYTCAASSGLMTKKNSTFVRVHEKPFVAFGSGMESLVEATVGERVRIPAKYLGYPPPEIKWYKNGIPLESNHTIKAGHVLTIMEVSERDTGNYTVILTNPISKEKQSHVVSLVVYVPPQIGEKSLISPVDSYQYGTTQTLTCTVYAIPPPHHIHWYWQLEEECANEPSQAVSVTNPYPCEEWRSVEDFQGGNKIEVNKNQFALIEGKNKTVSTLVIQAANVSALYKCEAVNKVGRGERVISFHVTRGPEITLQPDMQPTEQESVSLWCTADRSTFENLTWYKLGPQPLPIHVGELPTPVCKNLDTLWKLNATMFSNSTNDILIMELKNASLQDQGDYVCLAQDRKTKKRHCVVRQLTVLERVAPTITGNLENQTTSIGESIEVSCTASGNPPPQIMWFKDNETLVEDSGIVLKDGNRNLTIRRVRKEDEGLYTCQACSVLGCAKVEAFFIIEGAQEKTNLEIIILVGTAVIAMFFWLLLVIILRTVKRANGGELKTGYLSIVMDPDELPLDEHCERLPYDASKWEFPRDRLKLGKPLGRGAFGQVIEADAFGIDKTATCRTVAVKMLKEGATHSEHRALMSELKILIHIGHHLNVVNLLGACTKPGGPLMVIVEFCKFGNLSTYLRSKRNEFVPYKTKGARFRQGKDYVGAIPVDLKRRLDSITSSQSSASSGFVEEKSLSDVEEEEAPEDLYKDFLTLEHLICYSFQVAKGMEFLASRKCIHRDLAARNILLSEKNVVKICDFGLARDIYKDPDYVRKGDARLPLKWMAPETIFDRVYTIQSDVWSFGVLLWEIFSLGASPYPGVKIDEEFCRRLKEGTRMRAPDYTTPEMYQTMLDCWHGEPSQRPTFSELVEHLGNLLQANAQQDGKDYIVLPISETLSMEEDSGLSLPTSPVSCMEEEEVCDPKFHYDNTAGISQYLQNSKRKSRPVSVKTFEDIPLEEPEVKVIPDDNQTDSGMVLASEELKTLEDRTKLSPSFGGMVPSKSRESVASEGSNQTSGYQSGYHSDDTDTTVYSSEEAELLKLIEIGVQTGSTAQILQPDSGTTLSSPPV
Chain of UniProt P07948 (whole entry, looked up): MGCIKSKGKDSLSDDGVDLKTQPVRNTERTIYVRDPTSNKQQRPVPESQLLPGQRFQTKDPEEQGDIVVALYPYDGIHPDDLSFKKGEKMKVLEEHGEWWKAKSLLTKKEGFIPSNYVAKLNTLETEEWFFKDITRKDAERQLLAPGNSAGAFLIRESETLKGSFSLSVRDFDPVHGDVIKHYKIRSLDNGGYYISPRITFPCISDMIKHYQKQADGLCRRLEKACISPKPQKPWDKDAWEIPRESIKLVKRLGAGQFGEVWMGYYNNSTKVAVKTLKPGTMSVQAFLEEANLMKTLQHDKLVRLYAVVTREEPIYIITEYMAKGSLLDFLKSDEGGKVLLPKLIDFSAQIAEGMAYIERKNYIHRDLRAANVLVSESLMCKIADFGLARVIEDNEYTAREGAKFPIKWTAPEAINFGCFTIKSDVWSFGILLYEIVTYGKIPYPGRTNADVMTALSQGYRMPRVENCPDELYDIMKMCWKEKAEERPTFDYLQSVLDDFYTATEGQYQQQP
Chain of UniProt Q9Y5S2 (whole entry, looked up): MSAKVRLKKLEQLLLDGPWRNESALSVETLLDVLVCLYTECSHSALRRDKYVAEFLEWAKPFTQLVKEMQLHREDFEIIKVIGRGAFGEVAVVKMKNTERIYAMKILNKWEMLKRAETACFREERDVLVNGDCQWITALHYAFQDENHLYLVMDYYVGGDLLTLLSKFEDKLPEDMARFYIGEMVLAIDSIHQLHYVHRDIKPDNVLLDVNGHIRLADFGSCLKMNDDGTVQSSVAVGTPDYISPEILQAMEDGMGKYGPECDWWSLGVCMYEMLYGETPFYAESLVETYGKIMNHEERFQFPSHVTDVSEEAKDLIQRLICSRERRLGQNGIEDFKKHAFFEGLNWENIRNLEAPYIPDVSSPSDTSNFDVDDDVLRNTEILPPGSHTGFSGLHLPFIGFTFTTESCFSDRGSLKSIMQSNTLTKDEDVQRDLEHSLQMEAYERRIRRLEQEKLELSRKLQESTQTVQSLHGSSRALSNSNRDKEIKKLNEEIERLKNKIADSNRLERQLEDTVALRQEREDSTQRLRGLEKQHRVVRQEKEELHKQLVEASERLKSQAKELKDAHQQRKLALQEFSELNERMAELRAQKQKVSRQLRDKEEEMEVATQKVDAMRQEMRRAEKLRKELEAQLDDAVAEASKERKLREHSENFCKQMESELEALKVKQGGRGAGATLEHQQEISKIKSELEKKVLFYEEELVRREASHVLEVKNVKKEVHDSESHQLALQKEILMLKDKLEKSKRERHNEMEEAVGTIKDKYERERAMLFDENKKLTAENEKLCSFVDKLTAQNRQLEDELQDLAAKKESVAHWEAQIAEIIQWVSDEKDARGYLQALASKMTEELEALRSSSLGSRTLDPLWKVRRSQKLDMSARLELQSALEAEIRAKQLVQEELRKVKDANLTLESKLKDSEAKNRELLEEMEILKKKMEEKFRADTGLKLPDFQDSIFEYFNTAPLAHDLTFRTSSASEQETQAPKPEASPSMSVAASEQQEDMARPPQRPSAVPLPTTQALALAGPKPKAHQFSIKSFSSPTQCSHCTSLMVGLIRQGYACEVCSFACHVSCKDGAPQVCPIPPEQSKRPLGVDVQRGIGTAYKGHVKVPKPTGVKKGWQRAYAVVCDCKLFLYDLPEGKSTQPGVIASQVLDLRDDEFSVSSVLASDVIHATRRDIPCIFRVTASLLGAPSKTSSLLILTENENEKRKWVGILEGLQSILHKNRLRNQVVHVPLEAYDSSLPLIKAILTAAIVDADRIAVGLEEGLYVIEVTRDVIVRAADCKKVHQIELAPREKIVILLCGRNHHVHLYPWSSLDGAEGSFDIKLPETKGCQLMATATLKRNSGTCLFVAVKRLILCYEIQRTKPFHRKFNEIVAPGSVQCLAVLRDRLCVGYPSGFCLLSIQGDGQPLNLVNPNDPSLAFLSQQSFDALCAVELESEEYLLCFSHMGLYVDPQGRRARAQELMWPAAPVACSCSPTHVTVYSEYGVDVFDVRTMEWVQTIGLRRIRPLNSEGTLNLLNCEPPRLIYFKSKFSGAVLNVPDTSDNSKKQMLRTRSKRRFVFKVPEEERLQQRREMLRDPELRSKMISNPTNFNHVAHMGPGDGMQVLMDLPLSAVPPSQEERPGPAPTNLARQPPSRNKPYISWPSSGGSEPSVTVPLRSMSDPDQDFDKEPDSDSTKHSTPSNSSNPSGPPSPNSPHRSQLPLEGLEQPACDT
Chain of UniProt Q96L34 (whole entry, looked up): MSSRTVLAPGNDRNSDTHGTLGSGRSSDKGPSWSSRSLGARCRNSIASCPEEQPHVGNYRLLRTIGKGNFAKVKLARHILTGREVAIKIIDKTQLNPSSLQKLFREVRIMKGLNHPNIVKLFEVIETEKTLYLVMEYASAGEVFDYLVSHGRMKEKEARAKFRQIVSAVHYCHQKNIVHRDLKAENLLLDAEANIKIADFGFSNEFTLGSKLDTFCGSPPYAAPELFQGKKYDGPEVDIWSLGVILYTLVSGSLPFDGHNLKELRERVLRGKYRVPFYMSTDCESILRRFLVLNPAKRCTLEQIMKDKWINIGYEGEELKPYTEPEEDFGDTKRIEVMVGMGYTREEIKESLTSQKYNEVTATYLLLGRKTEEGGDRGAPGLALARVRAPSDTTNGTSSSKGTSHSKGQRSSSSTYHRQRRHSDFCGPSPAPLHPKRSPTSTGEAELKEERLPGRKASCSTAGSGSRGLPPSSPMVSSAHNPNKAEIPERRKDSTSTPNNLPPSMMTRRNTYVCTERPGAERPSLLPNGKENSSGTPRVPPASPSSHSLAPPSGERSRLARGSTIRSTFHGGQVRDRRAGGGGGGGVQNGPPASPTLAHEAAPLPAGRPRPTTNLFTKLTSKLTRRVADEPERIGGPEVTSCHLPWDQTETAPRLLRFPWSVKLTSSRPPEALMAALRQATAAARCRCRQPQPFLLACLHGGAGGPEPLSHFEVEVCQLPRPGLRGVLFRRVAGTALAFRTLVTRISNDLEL
Chain of UniProt P06493 (whole entry, looked up): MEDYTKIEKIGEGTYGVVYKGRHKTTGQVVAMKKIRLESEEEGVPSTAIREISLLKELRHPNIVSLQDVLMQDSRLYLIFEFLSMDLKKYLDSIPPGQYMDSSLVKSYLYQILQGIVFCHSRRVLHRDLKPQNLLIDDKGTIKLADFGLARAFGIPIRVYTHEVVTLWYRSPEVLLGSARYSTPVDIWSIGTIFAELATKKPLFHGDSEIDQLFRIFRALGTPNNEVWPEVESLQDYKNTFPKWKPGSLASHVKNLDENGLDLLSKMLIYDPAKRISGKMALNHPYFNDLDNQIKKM

Block 1
Structure (SMILES): O=C(Nc1cccc(Nc2nccc(Nc3cccc(C(F)(F)F)c3)n2)c1)C1CC1
Read-out: enzyme activity
Action: inhibitor
Tested at: 0.5 µM
Baseline: control
target	remaining activity
Misshapen-like kinase 1 (MINK1, Homo sapiens, UniProt Q8N4C8)	108%
Mitogen-activated protein kinase 14 (MAPK14, Homo sapiens, UniProt Q16539)	91.5%
Serine/threonine-protein kinase PAK 3 (PAK3, Homo sapiens, UniProt O75914)	98.9%
G protein-coupled receptor kinase 4 (GRK4, Homo sapiens, UniProt P32298)	96.9%
MAP/microtubule affinity-regulating kinase 4 (MARK4, Homo sapiens, UniProt Q96L34)	108%
Vascular endothelial growth factor receptor 2 (KDR, Homo sapiens, UniProt P35968)	91.6%
Discoidin domain-containing receptor 2 (DDR2, Homo sapiens, UniProt Q16832)	81.7%
Dual specificity mitogen-activated protein kinase kinase 1 (MAP2K1, Homo sapiens, UniProt Q02750)	98%
Hepatocyte growth factor receptor (MET, Homo sapiens, UniProt P08581)	87.7%
Dual specificity protein kinase CLK3 (CLK3, Homo sapiens, UniProt P49761)	104%
Serine/threonine-protein kinase MARK2 (MARK2, Homo sapiens, UniProt Q7KZI7)	97%
RAC-beta serine/threonine-protein kinase (AKT2, Homo sapiens, UniProt P31751)	107%
Serine/threonine-protein kinase MRCK beta (CDC42BPB, Homo sapiens, UniProt Q9Y5S2)	96.6%
Rho-associated protein kinase 1 (ROCK1, Homo sapiens, UniProt Q13464)	101%
Cyclin-dependent kinase 1, with cyclin A (CDK1, Homo sapiens, UniProt P06493)	95.9%
Tyrosine-protein kinase TXK (TXK, Homo sapiens, UniProt P42681)	90.2%
Cyclin-dependent kinase 9, with cyclin K (CDK9, Homo sapiens, UniProt P50750)	107%
Serine/threonine-protein kinase Nek3 (NEK3, Homo sapiens, UniProt P51956)	95.8%
Serine/threonine-protein kinase DCLK2 (DCLK2, Homo sapiens, UniProt Q8N568)	97.4%
Calcium/calmodulin-dependent protein kinase type 1B (PNCK, Homo sapiens, UniProt Q6P2M8)	106%
Serine/threonine-protein kinase PLK3 (PLK3, Homo sapiens, UniProt Q9H4B4)	90.2%
Mitogen-activated protein kinase 1 (MAPK1, Homo sapiens, UniProt P28482)	89%
Dual specificity protein kinase CLK4 (CLK4, Homo sapiens, UniProt Q9HAZ1)	84.3%
Ribosomal protein S6 kinase alpha-4 (RPS6KA4, Homo sapiens, UniProt O75676)	104%
Calcium/calmodulin-dependent protein kinase type IV (CAMK4, Homo sapiens, UniProt Q16566)	97.9%

Block 2
Target: His6 tag
Method: AlphaScreen counter screen
Tested at: concentration not given
Compound	inhibition [%]
O=C(NCc1cccnc1)c1n[nH]c2ccccc12	-6.25
CCCCn1nc(C(=O)NCCC(=O)O)c2ccccc2c1=O	0.4
O=c1[nH]c2ncc(-c3cccnc3)nc2n1C1CCCC1	7.25
CO[C@@H](C(=O)N1Cc2n[nH]c(NC(=O)c3ccc(N4CCN(C)CC4)cc3)c2C1)c1ccccc1	-5.5
CN(C)c1ncnc2nc[nH]c12	-2.35
COc1ccc2[nH]c([S+]([O-])Cc3ncc(C)c(OC)c3C)nc2c1 (centres unmarked)	-9.35
c1cncc(-c2cnc3c(N4CCOCC4)nccn23)c1	8
O=C(CSc1ccc2nnc(-c3cccc(F)c3)n2n1)NCC1CCCO1 (centres unmarked)	8.7

Block 3
SMILES: O=C(Nc1ccc(Oc2ccc(F)cc2)cc1)N1CCc2ncccc2[C@H]1c1ccc(F)cc1
Tested at: 1 µM
target	read-out	method	remaining binding
Receptor-interacting serine/threonine-protein kinase 4 (RIPK4, Homo sapiens, UniProt P57078)	cell-free assay	competition with immobilised ligand	84%
Phosphatidylinositol 5-phosphate 4-kinase type-2 beta (PIP4K2B, Homo sapiens, UniProt P78356)	cell-free assay	competition with immobilised ligand	97%
Serine/threonine-protein kinase 32A (STK32A, Homo sapiens, UniProt Q8WU08)	cell-free assay	competition with immobilised ligand	100%
Cyclin-dependent kinase 15 (CDK15, Homo sapiens, UniProt Q96Q40)	cell-free assay	competition with immobilised ligand	86%
Ephrin type-A receptor 1 (EPHA1, Homo sapiens, UniProt P21709)	cell-free assay	competition with immobilised ligand	100%
Receptor-type tyrosine-protein kinase FLT3 (FLT3, Homo sapiens, UniProt P36888)	cell-free assay	competition with immobilised ligand	77%
Wee1-like protein kinase 2 (WEE2, Homo sapiens, UniProt P0C1S8)	cell-free assay	competition with immobilised ligand	100%
Cyclin-G-associated kinase (GAK, Homo sapiens, UniProt O14976)	cell-free assay	competition with immobilised ligand	89%
Dual specificity mitogen-activated protein kinase kinase 6 (MAP2K6, Homo sapiens, UniProt P52564)	cell-free assay	competition with immobilised ligand	100%
Receptor tyrosine-protein kinase erbB-4 (ERBB4, Homo sapiens, UniProt Q15303)	cell-free assay	competition with immobilised ligand	82%
Myosin-IIIb (MYO3B, Homo sapiens, UniProt Q8WXR4)	binding	competition with immobilised ligand	83%
Tyrosine-protein kinase Lyn (LYN, Homo sapiens, UniProt P07948)	cell-free assay	competition with immobilised ligand	95%
Serine/threonine-protein kinase SIK1 (SIK1, Homo sapiens, UniProt P57059)		competition binding	99%
Tyrosine-protein kinase ABL1, phosphorylated (ABL1, Homo sapiens, UniProt P00519)	cell-free assay	competition with immobilised ligand	100%
Cyclin-dependent kinase 14 (CDK14, Homo sapiens, UniProt O94921)	cell-free assay	competition with immobilised ligand	94%
Vascular endothelial growth factor receptor 2 (KDR, Homo sapiens, UniProt P35968)	cell-free assay	competition with immobilised ligand	100%
Epidermal growth factor receptor (EGFR, Homo sapiens, UniProt P00533, A750P/del747-749)	cell-free assay	competition with immobilised ligand	92%
Tyrosine-protein kinase JAK3, JH1 (JAK3, Homo sapiens, UniProt P52333)	cell-free assay	competition with immobilised ligand	100%
Calcium/calmodulin-dependent protein kinase type IV (CAMK4, Homo sapiens, UniProt Q16566)	cell-free assay	competition with immobilised ligand	86%
Rho-associated protein kinase 2 (ROCK2, Homo sapiens, UniProt O75116)	cell-free assay	competition with immobilised ligand	93%
Interleukin-1 receptor-associated kinase 3 (IRAK3, Homo sapiens, UniProt Q9Y616)	cell-free assay	competition with immobilised ligand	100%
Receptor-type tyrosine-protein kinase FLT3 (FLT3, Homo sapiens, UniProt P36888, D835Y)	cell-free assay	competition with immobilised ligand	99%
Tyrosine-protein kinase ABL1, phosphorylated (ABL1, Homo sapiens, UniProt P00519, Y253F)	cell-free assay	competition with immobilised ligand	82%
Cyclin-dependent kinase 2 (CDK2, Homo sapiens, UniProt P24941)	cell-free assay	competition with immobilised ligand	90%
Serine/threonine-protein kinase Nek7 (NEK7, Homo sapiens, UniProt Q8TDX7)	cell-free assay	competition with immobilised ligand	82%

Block 4
Host: mouse
Sample: microsomes or S9
Tested at: 2 µM
Time: 0.5 h
Structure (SMILES)	remaining compound [%]
CC(=O)N(c1ccccc1)C(c1ccccc1)c1nc2ccccc2nc1O (centres unmarked)	2.63
O=C(CCCc1ccc2c(c1)-c1ccccc1C2)NC1CCCNC1=O (centres unmarked)	7.26
Cc1c(-c2cnn(C)c2C)nn(-c2ccc(Cl)cc2)c1-c1cnn(C)c1C	0.0553
CCOc1cc(=O)n2c(c1C(=O)N(CC)Cc1ccncc1)CCCCC2	35.3
Cc1cnc(-c2nc(NCCc3ccncc3)ncc2-c2onc(C)c2C)cn1	7.35
CCC(NC(=O)CCCc1ccc(Cl)cc1)c1ncnn1CC (centres unmarked)	2.04
CC(C)(C)N1CC(C(=O)NCCOc2ccc(-c3ccccc3)cc2)CC1=O (centres unmarked)	3.16
Nc1ccc(F)cc1-c1cc(Cl)cc(Cl)c1	2.17
Cc1cc(N(CC(=O)N2CCC(C(N)=O)CC2)S(C)(=O)=O)ccc1Br	60.7
CC(C)Cc1ccc(C(C)C(=O)NCCNC(=O)C2CCCNC2=O)cc1 (centres unmarked)	27.2
COCSc1c(C(O)(CF)c2cnn(C)c2SCOC)cnn1C	27.4
O=C(Cn1nc2c(cc1=O)CCCC2)NCC1CCC(C(=O)O)CC1 (centres unmarked)	89.7
c1ccc2c(c1)OCC(c1nn3c(Cn4cnc5ccccc54)nnc3s1)O2 (centres unmarked)	20.3

Excerpt of the above (block 3):
target	read-out	method	remaining binding
Cyclin-G-associated kinase (GAK, Homo sapiens, UniProt O14976)	cell-free assay	competition with immobilised ligand	89%
Dual specificity mitogen-activated protein kinase kinase 6 (MAP2K6, Homo sapiens, UniProt P52564)	cell-free assay	competition with immobilised ligand	100%
Receptor tyrosine-protein kinase erbB-4 (ERBB4, Homo sapiens, UniProt Q15303)	cell-free assay	competition with immobilised ligand	82%
Myosin-IIIb (MYO3B, Homo sapiens, UniProt Q8WXR4)	binding	competition with immobilised ligand	83%
Tyrosine-protein kinase Lyn (LYN, Homo sapiens, UniProt P07948)	cell-free assay	competition with immobilised ligand	95%
Serine/threonine-protein kinase SIK1 (SIK1, Homo sapiens, UniProt P57059)		competition binding	99%
Tyrosine-protein kinase ABL1, phosphorylated (ABL1, Homo sapiens, UniProt P00519)	cell-free assay	competition with immobilised ligand	100%
